{"data": "Measured values pooled from the literature", "note": "Numbered parts are unrelated; each lists some results of a single study.", "sequence of UniProt P42681 (whole entry, looked up)": "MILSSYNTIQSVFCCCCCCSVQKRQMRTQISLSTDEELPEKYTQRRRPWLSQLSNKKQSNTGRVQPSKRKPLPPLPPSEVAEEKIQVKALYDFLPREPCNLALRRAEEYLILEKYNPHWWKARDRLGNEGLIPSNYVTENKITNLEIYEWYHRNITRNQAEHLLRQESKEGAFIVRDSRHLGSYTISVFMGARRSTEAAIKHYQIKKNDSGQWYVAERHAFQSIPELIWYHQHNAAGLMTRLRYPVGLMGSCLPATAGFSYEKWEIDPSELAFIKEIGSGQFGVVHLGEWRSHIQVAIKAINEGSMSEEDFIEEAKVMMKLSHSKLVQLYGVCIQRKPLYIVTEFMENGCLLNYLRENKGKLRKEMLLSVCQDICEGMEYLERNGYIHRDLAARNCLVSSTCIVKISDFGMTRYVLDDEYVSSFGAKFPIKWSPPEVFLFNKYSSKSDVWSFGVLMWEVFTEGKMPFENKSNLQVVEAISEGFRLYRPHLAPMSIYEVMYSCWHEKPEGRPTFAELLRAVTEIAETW", "sequence of UniProt P51956 (whole entry, looked up)": "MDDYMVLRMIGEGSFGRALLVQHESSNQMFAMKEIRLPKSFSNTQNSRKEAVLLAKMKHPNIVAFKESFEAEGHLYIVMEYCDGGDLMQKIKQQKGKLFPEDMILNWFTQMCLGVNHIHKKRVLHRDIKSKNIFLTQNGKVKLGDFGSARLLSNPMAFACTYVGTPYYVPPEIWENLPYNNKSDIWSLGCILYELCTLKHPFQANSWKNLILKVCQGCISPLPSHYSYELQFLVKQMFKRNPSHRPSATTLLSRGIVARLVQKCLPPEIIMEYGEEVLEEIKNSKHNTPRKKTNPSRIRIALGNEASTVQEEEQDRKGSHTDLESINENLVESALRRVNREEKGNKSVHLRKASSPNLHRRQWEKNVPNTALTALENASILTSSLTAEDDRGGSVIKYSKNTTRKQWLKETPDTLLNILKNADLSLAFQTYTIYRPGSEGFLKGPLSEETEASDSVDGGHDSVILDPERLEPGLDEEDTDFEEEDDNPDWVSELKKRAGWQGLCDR", "sequence of UniProt Q6P2M8 (whole entry, looked up)": "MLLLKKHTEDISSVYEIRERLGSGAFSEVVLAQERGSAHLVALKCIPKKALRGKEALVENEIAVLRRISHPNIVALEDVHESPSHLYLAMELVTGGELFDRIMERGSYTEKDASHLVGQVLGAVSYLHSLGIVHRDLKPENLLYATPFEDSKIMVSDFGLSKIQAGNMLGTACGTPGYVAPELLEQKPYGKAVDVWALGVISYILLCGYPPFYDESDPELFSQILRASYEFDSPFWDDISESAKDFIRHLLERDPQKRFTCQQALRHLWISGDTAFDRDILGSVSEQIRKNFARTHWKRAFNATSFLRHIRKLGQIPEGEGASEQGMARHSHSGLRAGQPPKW", "sequence of UniProt Q9Y5S2 (whole entry, looked up)": "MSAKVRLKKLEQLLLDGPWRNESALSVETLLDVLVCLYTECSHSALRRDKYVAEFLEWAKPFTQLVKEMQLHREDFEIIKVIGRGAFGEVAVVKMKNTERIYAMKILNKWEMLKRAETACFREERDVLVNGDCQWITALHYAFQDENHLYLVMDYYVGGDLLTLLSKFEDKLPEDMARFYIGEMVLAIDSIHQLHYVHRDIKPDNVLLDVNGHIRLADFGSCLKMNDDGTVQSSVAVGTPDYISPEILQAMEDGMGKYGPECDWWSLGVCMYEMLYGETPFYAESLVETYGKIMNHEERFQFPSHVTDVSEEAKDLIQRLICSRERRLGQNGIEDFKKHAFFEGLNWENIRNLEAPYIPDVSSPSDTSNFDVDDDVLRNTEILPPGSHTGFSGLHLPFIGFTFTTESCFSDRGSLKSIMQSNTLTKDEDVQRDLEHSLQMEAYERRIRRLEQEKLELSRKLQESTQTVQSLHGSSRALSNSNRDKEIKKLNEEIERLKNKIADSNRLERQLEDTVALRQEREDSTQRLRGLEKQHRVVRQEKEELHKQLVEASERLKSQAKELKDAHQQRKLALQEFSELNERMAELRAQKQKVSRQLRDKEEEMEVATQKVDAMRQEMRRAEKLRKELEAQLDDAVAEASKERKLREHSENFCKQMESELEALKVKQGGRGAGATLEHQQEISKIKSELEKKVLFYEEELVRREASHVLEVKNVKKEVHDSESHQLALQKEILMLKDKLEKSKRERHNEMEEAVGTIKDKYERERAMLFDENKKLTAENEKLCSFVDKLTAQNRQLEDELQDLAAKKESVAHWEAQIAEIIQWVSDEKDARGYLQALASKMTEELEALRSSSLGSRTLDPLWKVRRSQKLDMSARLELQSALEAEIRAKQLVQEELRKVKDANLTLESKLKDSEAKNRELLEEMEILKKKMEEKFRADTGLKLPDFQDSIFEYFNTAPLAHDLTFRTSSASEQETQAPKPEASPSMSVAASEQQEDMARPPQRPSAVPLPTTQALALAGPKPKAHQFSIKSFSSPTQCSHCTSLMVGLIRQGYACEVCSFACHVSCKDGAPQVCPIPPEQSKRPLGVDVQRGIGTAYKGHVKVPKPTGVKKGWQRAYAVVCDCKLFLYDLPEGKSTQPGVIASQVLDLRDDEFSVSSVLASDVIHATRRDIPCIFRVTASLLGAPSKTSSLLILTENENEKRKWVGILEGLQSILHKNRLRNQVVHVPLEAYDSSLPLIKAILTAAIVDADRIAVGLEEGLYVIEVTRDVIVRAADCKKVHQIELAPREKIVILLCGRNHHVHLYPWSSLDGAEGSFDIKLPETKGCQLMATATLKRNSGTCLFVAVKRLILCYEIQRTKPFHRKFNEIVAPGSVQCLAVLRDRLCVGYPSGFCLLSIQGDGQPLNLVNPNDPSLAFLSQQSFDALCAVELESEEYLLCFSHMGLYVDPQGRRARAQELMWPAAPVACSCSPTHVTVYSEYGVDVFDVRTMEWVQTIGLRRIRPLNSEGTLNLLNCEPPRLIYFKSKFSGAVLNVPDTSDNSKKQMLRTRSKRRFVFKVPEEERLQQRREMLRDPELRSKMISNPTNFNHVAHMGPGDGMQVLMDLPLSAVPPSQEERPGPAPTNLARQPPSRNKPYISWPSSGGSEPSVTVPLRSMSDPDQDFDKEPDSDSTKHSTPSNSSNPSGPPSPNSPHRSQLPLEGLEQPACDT", "sequence of UniProt P50750 (whole entry, looked up)": "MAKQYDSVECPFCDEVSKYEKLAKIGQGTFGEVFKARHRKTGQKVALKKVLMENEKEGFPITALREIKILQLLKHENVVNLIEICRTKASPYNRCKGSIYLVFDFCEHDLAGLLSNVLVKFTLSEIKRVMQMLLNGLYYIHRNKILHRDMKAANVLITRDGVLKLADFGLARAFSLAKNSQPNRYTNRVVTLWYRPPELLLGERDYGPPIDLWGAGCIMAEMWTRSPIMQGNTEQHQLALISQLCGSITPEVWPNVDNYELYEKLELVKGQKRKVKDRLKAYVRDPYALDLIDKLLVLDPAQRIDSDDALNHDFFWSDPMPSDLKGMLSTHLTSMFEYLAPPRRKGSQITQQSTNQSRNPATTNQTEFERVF", "sequence of UniProt Q15349 (whole entry, looked up)": "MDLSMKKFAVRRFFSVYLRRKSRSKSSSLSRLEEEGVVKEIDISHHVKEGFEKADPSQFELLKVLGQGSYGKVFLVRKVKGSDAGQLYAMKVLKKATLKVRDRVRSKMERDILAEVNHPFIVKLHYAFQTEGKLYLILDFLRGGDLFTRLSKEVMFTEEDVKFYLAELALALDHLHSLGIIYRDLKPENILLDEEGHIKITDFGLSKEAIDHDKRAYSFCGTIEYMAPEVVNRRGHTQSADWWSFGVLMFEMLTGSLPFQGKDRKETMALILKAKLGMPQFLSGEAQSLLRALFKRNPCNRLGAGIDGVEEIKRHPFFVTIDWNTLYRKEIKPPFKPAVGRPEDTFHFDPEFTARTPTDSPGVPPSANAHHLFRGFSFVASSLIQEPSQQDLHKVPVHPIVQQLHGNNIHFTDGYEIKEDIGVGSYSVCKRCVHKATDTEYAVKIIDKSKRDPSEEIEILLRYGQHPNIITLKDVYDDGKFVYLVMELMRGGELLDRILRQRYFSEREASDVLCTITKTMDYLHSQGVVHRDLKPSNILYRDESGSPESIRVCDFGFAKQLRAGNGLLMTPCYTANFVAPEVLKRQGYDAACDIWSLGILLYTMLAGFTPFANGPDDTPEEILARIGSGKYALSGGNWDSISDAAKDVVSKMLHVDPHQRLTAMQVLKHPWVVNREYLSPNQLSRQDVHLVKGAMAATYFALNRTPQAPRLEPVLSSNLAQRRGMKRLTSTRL", "sequence of UniProt Q16539 (whole entry, looked up)": "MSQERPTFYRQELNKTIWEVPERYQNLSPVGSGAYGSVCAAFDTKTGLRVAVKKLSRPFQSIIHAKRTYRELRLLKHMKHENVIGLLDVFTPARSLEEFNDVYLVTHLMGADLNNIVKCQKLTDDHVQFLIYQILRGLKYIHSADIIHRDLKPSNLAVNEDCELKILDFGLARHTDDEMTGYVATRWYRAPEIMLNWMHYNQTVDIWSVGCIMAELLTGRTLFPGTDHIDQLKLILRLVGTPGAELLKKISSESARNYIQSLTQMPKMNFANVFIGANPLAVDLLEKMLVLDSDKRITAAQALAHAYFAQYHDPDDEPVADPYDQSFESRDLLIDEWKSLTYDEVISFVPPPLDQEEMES"}
{"data": "Sample 1", "target": "Interferon regulatory factor 5, full length, phosphomimetic (IRF5, Homo sapiens, UniProt Q13568-2, residues 1-514, K96S/S451D/S453D/S456D/S462D)", "technique": "protein-binding microarray", "form": "double-stranded DNA, one strand shown", "medium": "in vitro", "concentration": "250 nM", "setting": "60-bp whole probe", "with": "salmon DNA 0.4 mg/ml", "baseline": "random background probes", "direction": "higher = stronger binding", "all sequences stand within": "GCCTAGCAC … GTCTTGATTCGCTTGACGCTGCTG"}
{"Strand": "TTAGGTTTCGACTATCGGTTAGTGCTA", "log fluorescence": "8.79 z-score"}
{"Strand": "TTAGGTTTCGCGACTGGGTTAGTGCTA", "log fluorescence": "1.43 z-score"}
{"Strand": "GTTTGTATATATTTTAACCCGTGCTAG", "log fluorescence": "0.499 z-score"}
{"Strand": "CTAGGTTTCCTTATCCTTTAGTGCTAG", "log fluorescence": "0.67 z-score"}
{"Strand": "ATAGATATCAGTATCGATTAGTGCTAG", "log fluorescence": "7.92 z-score"}
{"Strand": "TTAGGTTTCCTTTTACTTTAGTGCTAG", "log fluorescence": "1.73 z-score"}
{"Strand": "CTGCCTGGCCAAGCCCAGATGTGCTAG", "log fluorescence": "-0.958 z-score"}
{"Strand": "TTAGATTTCAGTTTCGCTTAGTGCTAG", "log fluorescence": "8.94 z-score"}
{"data": "Sample 2", "Structure (SMILES)": "Nc1cccc(-c2cc3c(Oc4cccc(O)c4)ncnc3[nH]2)c1", "observed": "enzyme activity", "mode": "inhibitor", "concentration": "0.5 µM", "baseline": "control"}
{"target": "Serine/threonine-protein kinase Nek3 (NEK3, Homo sapiens, UniProt P51956)", "remaining activity [%]": 57.5}
{"target": "Cyclin-dependent kinase 9, with cyclin K (CDK9, Homo sapiens, UniProt P50750)", "remaining activity [%]": 58.4}
{"target": "Serine/threonine-protein kinase MRCK beta (CDC42BPB, Homo sapiens, UniProt Q9Y5S2)", "remaining activity [%]": 93.5}
{"target": "Tyrosine-protein kinase TXK (TXK, Homo sapiens, UniProt P42681)", "remaining activity [%]": 24.5}
{"target": "Calcium/calmodulin-dependent protein kinase type 1B (PNCK, Homo sapiens, UniProt Q6P2M8)", "remaining activity [%]": 98.2}
{"target": "Hepatocyte growth factor receptor (MET, Homo sapiens, UniProt P08581)", "remaining activity [%]": 110}
{"target": "RAC-beta serine/threonine-protein kinase (AKT2, Homo sapiens, UniProt P31751)", "remaining activity [%]": 109}
{"target": "Rho-associated protein kinase 1 (ROCK1, Homo sapiens, UniProt Q13464)", "remaining activity [%]": 94.1}
{"data": "Sample 3", "target": "Ras GTPase-activating protein-binding protein 1, full length (G3BP1, Homo sapiens, UniProt Q13283)", "technique": "RNA Bind-n-Seq", "form": "RNA", "medium": "in vitro", "concentration": "200 nM", "setting": "whole 134-nt RNA, ends assumed", "with": "150 mM KCl", "baseline": "input library", "direction": "higher = stronger binding", "all sequences stand within": "GGGAGUUCUACAGUCCGACGAUC … UGGAAUUCUCGGGUGUCAAGG", "sequence of UniProt Q13283 (whole entry, looked up)": "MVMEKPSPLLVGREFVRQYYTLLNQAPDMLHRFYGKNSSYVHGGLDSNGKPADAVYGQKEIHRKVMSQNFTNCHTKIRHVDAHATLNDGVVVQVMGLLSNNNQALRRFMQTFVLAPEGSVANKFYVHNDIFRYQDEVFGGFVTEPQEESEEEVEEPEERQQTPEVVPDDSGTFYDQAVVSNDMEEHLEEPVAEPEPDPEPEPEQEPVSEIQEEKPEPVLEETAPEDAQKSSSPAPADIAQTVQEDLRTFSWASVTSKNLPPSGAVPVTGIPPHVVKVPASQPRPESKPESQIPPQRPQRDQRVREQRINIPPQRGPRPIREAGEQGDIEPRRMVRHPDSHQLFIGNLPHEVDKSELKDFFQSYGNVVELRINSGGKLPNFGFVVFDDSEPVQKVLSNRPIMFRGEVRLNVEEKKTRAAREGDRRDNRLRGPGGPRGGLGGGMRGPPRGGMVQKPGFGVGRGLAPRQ"}
{"Strand": "CACAGACAACACGCACCCACACAGACACAGAGGGAAGGGGUGGGGAUGGGGACAGGGUGCACAGCAGGGCGGGGUAGGACCCCAGCCCCU", "log2 enrichment": 1.75}
{"Strand": "UCCUGUGCUACACAUCGUAUGUACCGAAUCGGGAAAGGGUUUUUUUGGGUUUUUUUGGGAAAGUAUUAUGUUACGCCGUUCGGAUCUGCA", "log2 enrichment": -0.419}
{"Strand": "UAACUUUAGAGAAGGAUCUGAUGGAUAUGGCAGUGGACGUGGAUUUGGGGAUGGCUAUAAUGGGUAUGGAGGAGGACCUGGAGGUGGCAA", "log2 enrichment": 0.405}
{"Strand": "CUCAAGUCCUGUGCUACACAUCGUAUGUACCGAAUCGGGCCCGGCCCGGCCCGGAAAGUAUUAUGUUACGCCGUUCGGAUCUGCACUUCC", "log2 enrichment": -0.559}
{"Strand": "GUCCUGUGCUACACAUCGUAUGUACCGAAUCGUGUGUGUGUGUGUGUGUGUGUGUGUGAAAGUAUUAUGUUACGCCGUUCGGAUCUGCAC", "log2 enrichment": 0.848}
{"Strand": "CAAGUCCUGUGCUACACAUCGUAUGUACCGAAUCGGGAAAAGGAAAAGGAAAAGGAAAGUAUUAUGUUACGCCGUUCGGAUCUGCACUUC", "log2 enrichment": -0.922}
{"Strand": "GUCCUGUGCUACACAUCGUAUGUACCGAAUCAAAUUUAAAUUUUUUUAAACCCCCAAAAAAGUAUUAUGUUACGCCGUUCGGAUCUGCAC", "log2 enrichment": -0.177}
{"Strand": "ACCAUGCGGGUGGGCAUCUUUGGGAAGUGGGGCAAGGGGGGGAUAGGGAGGGGGGUAACACUUUGGGAACAGGUGGUCCCAGGUCGUUUC", "log2 enrichment": 1.29}
{"data": "Sample 4", "Structure (SMILES)": "CCS(=O)(=O)c1cc2cc(C[C@@](O)(CC(C)(C)c3ccc(F)cc3C(N)=O)C(F)(F)F)[nH]c2cn1", "observed": "cell-free assay", "technique": "competition with immobilised ligand", "concentration": "1 µM"}
{"target": "Ribosomal protein S6 kinase alpha-2, N-terminal kinase domain (RPS6KA2, Homo sapiens, UniProt Q15349)", "remaining binding [%]": 80}
{"target": "Mitogen-activated protein kinase 14 (MAPK14, Homo sapiens, UniProt Q16539)", "remaining binding [%]": 97}
{"target": "Mitogen-activated protein kinase 4 (MAPK4, Homo sapiens, UniProt P31152)", "remaining binding [%]": 84}
{"target": "Glycogen synthase kinase-3 alpha (GSK3A, Homo sapiens, UniProt P49840)", "remaining binding [%]": 100}
{"note": "For quick reference, copied from above (sample 2):"}
{"target": "Serine/threonine-protein kinase MRCK beta (CDC42BPB, Homo sapiens, UniProt Q9Y5S2)", "remaining activity [%]": 93.5}
{"target": "Rho-associated protein kinase 1 (ROCK1, Homo sapiens, UniProt Q13464)", "remaining activity [%]": 94.1}
{"target": "Serine/threonine-protein kinase Nek3 (NEK3, Homo sapiens, UniProt P51956)", "remaining activity [%]": 57.5}
{"target": "Tyrosine-protein kinase TXK (TXK, Homo sapiens, UniProt P42681)", "remaining activity [%]": 24.5}
